# Published values of several laboratories.
# Numbered parts are unrelated; each lists some results of a single study. Changes are numbered by the printed parent chain.
# Sequence of UniProt Q8WVD5 (whole entry, looked up): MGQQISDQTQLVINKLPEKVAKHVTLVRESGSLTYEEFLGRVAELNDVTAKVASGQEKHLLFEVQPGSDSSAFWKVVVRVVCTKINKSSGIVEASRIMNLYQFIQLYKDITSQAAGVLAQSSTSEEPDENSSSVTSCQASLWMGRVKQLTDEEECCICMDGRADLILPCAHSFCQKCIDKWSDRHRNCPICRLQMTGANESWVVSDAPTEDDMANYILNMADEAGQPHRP
# Sequence of UniProt Q9Y2X8 (whole entry, looked up): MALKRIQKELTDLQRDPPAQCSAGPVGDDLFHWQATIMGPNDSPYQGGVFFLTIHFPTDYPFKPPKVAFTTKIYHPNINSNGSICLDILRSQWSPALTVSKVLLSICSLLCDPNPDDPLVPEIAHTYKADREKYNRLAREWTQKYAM

# Sample 1
# Target: CCND3, cyclin fold, Cln2 fusion (human)
# Method: yeast growth competition, sequencing
# Matrix: yeast
# Notes: weak parent motif
# Baseline: not given
# Direction: higher = stronger binding
# Starting sequence: viral docking peptide; KGVKRKLFAEDSS; partner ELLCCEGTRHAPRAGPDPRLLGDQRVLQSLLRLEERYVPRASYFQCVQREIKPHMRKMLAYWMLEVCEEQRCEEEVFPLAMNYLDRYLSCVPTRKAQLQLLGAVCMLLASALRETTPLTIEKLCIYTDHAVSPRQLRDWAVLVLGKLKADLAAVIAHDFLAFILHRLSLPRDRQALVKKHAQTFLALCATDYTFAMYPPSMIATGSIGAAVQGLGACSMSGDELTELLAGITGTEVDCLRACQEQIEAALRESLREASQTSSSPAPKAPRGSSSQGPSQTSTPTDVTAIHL
Change,normalised enrichment score
V3C,0.159
A9E,0.124
L7W,-0.35
V3W,-0.427
R5W,-0.0827
R5E,0.205
R5C,0.0725
K4L,0.303
A9M,0.232
V3D,-0.126
D11C,-0.0892
K6R,0.456
K1A,0.19
A9N,-0.12
V3G,0.536
F8V,0.457
R5A L7A,0.203
R5K F8L,0.51
A9Y,0.0611
K4A,0.149
A9H,0.0828

# Sample 2
# Target: ATP-dependent RNA helicase DDX3X, helicase core (DDX3X, Homo sapiens, UniProt O00571, residues 132-607)
# Sequence of UniProt O00571 (132-607, looked up): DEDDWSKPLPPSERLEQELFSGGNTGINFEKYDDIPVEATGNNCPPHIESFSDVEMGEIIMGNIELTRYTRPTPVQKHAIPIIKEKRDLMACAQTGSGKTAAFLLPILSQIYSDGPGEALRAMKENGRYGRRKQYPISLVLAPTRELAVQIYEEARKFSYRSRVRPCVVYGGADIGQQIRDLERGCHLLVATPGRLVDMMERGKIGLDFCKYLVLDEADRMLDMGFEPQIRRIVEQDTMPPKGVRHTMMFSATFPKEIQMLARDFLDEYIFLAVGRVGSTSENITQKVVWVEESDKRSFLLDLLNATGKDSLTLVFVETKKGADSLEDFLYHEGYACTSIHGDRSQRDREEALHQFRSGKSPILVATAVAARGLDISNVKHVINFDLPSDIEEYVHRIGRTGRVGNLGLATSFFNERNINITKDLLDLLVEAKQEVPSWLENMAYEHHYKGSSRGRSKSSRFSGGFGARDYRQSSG
# Method: RNA Bind-n-Seq
# Form: RNA
# Matrix: in vitro
# Tested at: 90 pmol
# Notes: 4-mer, random 30-nt RNA, single round
# Added: 3 µM iPr-DMDA-PatA, 2 mM ADP, 2 mM phosphate
# Baseline: input library
# Direction: higher = stronger binding
Oligonucleotide,4-mer enrichment [fold]
AAGU,1.22
UCAG,0.974
CGAU,0.926
AAUG,1.14
CGUC,0.964
UGCA,0.824
GGCC,0.637
UUGG,0.85

# Sample 3
# Target: Prothrombin, mature alpha-thrombin (F2, Homo sapiens, UniProt P00734)
# Method: aptamer microarray, sandwich
# Form: DNA with 2'F-ANA
# Matrix: in vitro
# Tested at: 200 nM
# Notes: whole 15-mer aptamer, many near background
# Added: Cy3 exosite-II aptamer, 400 nM
# Direction: higher = stronger binding
# Oligonucleotide: GGTTGGTGTGGTTGG
Modification,mean fluorescence intensity [a.u.]
2'F-ANA at 2 6 7 9 11 12 15,466
2'F-ANA at 1 3 10 15,217
2'F-ANA at 1 5 6 7 12 13 15,72.6
2'F-ANA at 1 3 4 5 6 8 15,64.7
2'F-ANA at 2 4 5 8 9 10 11 12 14 15,46.7
2'F-ANA at 1 5 7 9 10 14,75.8
2'F-ANA at 2 4 5 6 7 9 12 13,84.7
2'F-ANA at 2 4 5 6 7 8 10 11 12 13 14,47.9

# Sample 4
# Target: Histone acetyltransferase KAT6A, winged helix 2, GST fusion (KAT6A, Homo sapiens, UniProt Q92794, residues 85-181)
# Method: protein binding microarray
# Form: double-stranded DNA, one strand shown
# Matrix: in vitro
# Tested at: not given
# Notes: 8-mer, flanks averaged, mean of 2 arrays, mostly near background
# Baseline: not given
# Direction: higher = stronger binding
# Residues (chain): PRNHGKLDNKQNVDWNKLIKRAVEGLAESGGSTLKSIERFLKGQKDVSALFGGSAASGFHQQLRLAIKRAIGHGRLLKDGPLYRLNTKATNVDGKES
Oligonucleotide,E-score
GCTCGCCC,0.189
CTTATTCA,-0.114
ATCCCAAG,0.0605
AATAGAAA,-0.0101
AAGAAGGC,-0.131
ACAAACCC,0.059
AGCTGTAG,-0.046
CGTATCTC,-0.136

# Further values, each from its own experiment
Molecule,target,test,test system,conditions,scale,endpoint,result
RNF141 RING domain (UniProt Q8WVD5),UBE2D4 UBC core domain (UniProt Q9Y2X8),yeast two-hybrid,yeast,mostly zero background,"baseline: not given, higher = stronger interaction",lacZ reporter activity,0

# For quick reference, copied from above (sample 1):
Change,normalised enrichment score
R5C,0.0725
K4L,0.303
A9M,0.232
V3D,-0.126
